{"data": "Assay results collected from several papers", "note": "Each line is one published result; not all experiments were run side by side. ± marks the error that the study gave."}
{"Compound": "NC(=O)C(c1ccccc1)(c1ccc(F)cc1)c1ccc(F)cc1", "test": "LC-MS", "system": "male C57BL/6J mice, brain and plasma", "conditions": "intraperitoneal, 50 mg/kg", "scale": "brain significantly higher than plasma", "quantity": "time brain over plasma concentration", "value": "≥ 6 h"}
{"Compound": "O=C(O)Cc1ccccc1Nc1c(Cl)cccc1Cl", "test": "mitochondrial swelling", "system": "BALB/cByJ female mouse liver mitochondria", "conditions": "30 min, with: succinate + rotenone", "scale": "baseline: CaCl2 maximal swelling", "quantity": "EC20", "value": "> 800 µM"}
{"Compound": "CCCC[C@@H]1NC(=O)[C@@H](NC(=O)[C@H](CCC(=O)O)NC(=O)CNC(=O)CN2CCN(CC(=O)O)CCN(CC(=O)O)CCN(CC(=O)O)CC2)CCCCNC(=O)C[C@@H](C(N)=O)NC(=O)[C@H](C(C)C)NC(=O)[C@@H]2CCCN2C(=O)[C@H](CCCNC(=N)N)NC(=O)CNC(=O)[C@H](Cc2c[nH]c3ccccc23)NC(=O)[C@H](CCCNC(=N)N)NC(=O)[C@@H](Cc2ccccc2)NC(=O)[C@H](Cc2c[nH]cn2)NC(=O)[C@H](CCC(=O)O)NC1=O [indium-111 labelled]", "system": "C57 mice, B16/F10 lung metastatic melanoma, bone", "conditions": "intravenous, 0.037 MBq, 2 h", "quantity": "tissue uptake", "value": "0.02 ± 0.01 %ID/g"}
{"Compound": "COc1cccc(N2CCN(C3=Nc4c(F)cccc4[C@H](CC(=O)O)N3c3cc(C(F)(F)F)ccc3OC)CC2)c1", "system": "healthy women, plasma", "conditions": "intravenous infusion, 240 mg, day 1, single dose, 30-min infusion", "quantity": "clearance", "value": "137 ± 28.7 mL/min"}
{"Compound": "Cc1nc2cccc(N)c2c(=O)n1C1CCC(=O)NC1=O (stereo not drawn)", "system": "healthy adults", "conditions": "oral, 3 mg, geometric mean, with: fluvoxamine 50 mg twice daily", "quantity": "CL/F", "value": "2.74 L/h"}
{"Compound": "COc1ccc(C=CC(=O)O)cc1OS(=O)(=O)O", "system": "human, fasted baseline, cerebrospinal fluid", "quantity": "mean concentration", "value": "12.9 nM"}
{"Compound": "Cc1cc(Nc2cc3ncccc3c(N[C@@H]3C[C@H]4CC[C@@H](C3)N4CCC#N)n2)n[nH]1", "system": "Sprague-Dawley rat, male, plasma", "conditions": "oral, 30 mg/kg/day, last day of 13 weeks", "quantity": "Cmax", "value": "6.53 ng/mL"}
{"Compound": "O=C(c1nc2n(n1)[C@H](c1ccccc1)C[C@@H]2F)C1CC1", "system": "human, plasma", "conditions": "oral, 150 mg, single dose, fasted, healthy volunteers", "quantity": "Vd/F", "value": "101 L"}
{"Compound": "CN(C)C(=N)N=C(N)N", "test": "cytochrome c release, ELISA", "system": "BALB/cByJ female mouse liver mitochondria", "conditions": "30 min", "scale": "baseline: alamethicin maximal release", "quantity": "EC20", "value": "> 800 µM"}
{"Compound": "O=C(NC[C@H]1CN(c2ccc(N3CCOCC3=O)cc2)C(=O)O1)c1ccc(Cl)s1", "system": "Sprague-Dawley rat, male, plasma", "conditions": "oral, 10 mg/kg, with: naringenin 10 mg/kg/day oral, 2 weeks", "quantity": "apparent clearance CL/F", "value": "42.8 ± 12.2 mL/min/kg"}
{"Compound": "CCc1cc2cc(OC)cc(C(=O)c3cc(Br)c(O)c(Br)c3)c2o1", "test": "metabolic stability", "system": "Sprague-Dawley rat, liver microsomes", "conditions": "1 µM, pH 7.4", "quantity": "microsomal CLint", "value": "8.5 µL/min/mg"}
{"Compound": "O=c1c(O)c(-c2ccc(O)cc2)oc2cc(O)cc(O)c12", "test": "item: kaempferol 3- and 7-glucuronides", "system": "Bcrp1 knockout FVB mice, intestinal S9 fraction", "conditions": "1.25 µM, 20 min, pH 7.4", "scale": "baseline: wild-type mice", "quantity": "glucuronidation rate decrease", "value": "~55%"}
{"Compound": "COc1cc(/C=C/C(=O)CC(=O)/C=C/c2ccc(O)c(OC)c2)ccc1O", "test": "I-125 label", "system": "C57BL/6J mouse, cerebellum", "conditions": "intranasal vs intraperitoneal, 10 µg/mouse IN, 100 µg/mouse IP, 4 h", "scale": "baseline: intranasal over intraperitoneal", "quantity": "brain uptake ratio", "value": 7.64}
{"Compound": "CCCCc1oc2ccccc2c1C(=O)c1cc(I)c(OCCN(CC)CC)c(I)c1", "test": "cytochrome c release, ELISA", "system": "BALB/cByJ female mouse liver mitochondria", "conditions": "30 min", "scale": "baseline: alamethicin maximal release", "quantity": "EC20", "value": "< 50 µM"}
{"Compound": "Cn1c(-c2ccc(C(N)=O)cc2F)nnc1C(C)(C)Oc1c(F)cc(Cl)cc1F", "system": "young non-Japanese humans, plasma", "conditions": "oral, 2 mg, day 1, single dose", "quantity": "median AUC(0-inf)", "value": "48 ng·h/mL"}
